Results pooled from the literature.
Every numbered part comes from another study and shows a few of its results, in no order.
UniProt Q14164, sequence (whole entry, looked up): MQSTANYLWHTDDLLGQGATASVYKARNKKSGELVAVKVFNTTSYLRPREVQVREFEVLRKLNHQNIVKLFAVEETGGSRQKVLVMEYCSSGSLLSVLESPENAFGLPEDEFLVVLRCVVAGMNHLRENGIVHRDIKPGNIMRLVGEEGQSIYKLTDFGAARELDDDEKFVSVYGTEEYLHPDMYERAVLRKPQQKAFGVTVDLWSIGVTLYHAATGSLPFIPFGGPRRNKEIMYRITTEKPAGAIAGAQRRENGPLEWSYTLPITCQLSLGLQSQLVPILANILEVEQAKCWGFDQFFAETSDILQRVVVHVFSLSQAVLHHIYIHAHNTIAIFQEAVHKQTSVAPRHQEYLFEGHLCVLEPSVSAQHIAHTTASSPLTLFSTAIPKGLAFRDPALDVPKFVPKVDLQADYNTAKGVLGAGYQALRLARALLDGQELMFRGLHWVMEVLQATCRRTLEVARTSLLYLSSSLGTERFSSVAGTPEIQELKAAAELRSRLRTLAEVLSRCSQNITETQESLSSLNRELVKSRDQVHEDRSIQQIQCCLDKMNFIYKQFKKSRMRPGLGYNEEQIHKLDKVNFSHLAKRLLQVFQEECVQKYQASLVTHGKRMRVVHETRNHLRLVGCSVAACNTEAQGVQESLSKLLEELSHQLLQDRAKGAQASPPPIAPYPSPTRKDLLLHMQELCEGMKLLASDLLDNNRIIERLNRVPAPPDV
UniProt O94768, sequence (whole entry, looked up): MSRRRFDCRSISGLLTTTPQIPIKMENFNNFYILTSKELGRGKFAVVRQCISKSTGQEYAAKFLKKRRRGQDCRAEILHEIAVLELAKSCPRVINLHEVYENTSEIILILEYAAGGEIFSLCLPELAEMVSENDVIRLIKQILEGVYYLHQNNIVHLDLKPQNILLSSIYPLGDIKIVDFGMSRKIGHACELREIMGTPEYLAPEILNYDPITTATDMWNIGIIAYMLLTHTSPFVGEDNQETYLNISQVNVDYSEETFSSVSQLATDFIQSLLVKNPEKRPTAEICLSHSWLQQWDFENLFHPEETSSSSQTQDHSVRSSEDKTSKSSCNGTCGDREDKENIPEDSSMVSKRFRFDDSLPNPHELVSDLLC
UniProt Q9UF33, sequence (whole entry, looked up): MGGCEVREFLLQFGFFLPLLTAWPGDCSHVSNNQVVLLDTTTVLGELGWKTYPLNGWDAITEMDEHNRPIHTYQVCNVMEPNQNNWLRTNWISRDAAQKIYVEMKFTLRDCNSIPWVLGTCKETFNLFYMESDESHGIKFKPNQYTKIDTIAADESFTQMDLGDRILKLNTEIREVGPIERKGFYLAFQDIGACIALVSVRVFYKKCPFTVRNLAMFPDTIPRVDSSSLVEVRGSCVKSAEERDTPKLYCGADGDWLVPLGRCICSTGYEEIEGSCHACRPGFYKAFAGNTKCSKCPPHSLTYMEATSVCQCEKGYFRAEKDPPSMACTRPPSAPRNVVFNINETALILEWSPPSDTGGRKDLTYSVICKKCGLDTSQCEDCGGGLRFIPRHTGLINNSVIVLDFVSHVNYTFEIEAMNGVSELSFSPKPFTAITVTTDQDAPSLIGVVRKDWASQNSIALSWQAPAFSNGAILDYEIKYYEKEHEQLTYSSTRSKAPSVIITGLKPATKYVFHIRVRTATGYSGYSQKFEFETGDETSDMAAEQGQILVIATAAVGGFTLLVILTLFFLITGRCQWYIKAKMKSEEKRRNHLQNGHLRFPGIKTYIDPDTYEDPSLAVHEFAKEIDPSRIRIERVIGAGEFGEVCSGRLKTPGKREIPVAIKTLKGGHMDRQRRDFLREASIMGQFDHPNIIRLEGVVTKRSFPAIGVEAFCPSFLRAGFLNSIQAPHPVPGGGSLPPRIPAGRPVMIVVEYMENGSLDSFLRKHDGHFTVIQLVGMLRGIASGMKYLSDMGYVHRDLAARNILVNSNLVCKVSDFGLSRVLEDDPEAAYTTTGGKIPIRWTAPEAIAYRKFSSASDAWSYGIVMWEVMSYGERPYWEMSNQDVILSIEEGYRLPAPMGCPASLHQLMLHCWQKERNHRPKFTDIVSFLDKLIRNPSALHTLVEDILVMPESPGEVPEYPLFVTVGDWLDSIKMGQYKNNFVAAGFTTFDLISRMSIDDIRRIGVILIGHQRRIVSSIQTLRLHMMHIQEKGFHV
UniProt O00238, sequence (whole entry, looked up): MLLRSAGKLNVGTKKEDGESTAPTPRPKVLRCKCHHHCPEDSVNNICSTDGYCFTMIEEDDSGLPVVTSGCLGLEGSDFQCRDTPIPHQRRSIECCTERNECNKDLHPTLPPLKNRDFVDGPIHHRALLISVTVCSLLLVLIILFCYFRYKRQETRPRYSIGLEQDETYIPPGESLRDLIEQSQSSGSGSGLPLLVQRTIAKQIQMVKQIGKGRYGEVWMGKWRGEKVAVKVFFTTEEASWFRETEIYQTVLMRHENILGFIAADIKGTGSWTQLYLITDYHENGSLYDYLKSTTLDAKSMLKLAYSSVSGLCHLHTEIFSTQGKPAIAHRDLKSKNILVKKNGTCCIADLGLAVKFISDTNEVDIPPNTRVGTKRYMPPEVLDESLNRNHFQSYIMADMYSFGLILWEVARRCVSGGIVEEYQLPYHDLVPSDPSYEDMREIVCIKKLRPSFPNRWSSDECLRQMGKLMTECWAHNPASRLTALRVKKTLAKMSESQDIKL
UniProt P06239, sequence (whole entry, looked up): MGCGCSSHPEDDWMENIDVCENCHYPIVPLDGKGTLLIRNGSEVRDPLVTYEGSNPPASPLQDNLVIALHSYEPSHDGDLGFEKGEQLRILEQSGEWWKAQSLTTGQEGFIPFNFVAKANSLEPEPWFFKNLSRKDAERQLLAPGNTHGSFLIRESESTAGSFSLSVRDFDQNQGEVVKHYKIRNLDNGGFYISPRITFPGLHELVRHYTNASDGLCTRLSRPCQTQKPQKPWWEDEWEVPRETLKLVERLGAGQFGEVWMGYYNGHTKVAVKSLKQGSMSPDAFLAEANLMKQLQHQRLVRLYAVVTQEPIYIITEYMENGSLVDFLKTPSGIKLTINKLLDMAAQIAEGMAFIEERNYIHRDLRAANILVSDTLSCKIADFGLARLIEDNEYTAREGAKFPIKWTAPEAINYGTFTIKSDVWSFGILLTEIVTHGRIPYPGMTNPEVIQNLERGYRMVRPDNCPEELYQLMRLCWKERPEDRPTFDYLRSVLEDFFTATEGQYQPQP
UniProt Q8TD08, sequence (whole entry, looked up): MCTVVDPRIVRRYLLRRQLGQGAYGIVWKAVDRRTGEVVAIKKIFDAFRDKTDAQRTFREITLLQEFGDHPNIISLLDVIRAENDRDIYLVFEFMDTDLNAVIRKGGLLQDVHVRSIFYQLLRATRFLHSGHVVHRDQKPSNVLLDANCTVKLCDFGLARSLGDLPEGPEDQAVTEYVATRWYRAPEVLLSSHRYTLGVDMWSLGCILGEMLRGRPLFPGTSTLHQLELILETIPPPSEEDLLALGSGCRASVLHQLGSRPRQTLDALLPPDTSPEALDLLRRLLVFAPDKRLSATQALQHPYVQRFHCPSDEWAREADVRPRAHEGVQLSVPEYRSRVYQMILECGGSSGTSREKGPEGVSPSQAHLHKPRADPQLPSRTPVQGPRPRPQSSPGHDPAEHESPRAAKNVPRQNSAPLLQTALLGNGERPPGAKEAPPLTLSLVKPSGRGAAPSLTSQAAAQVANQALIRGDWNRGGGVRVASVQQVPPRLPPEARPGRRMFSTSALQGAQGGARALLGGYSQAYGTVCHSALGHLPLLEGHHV
UniProt P42680, sequence (whole entry, looked up): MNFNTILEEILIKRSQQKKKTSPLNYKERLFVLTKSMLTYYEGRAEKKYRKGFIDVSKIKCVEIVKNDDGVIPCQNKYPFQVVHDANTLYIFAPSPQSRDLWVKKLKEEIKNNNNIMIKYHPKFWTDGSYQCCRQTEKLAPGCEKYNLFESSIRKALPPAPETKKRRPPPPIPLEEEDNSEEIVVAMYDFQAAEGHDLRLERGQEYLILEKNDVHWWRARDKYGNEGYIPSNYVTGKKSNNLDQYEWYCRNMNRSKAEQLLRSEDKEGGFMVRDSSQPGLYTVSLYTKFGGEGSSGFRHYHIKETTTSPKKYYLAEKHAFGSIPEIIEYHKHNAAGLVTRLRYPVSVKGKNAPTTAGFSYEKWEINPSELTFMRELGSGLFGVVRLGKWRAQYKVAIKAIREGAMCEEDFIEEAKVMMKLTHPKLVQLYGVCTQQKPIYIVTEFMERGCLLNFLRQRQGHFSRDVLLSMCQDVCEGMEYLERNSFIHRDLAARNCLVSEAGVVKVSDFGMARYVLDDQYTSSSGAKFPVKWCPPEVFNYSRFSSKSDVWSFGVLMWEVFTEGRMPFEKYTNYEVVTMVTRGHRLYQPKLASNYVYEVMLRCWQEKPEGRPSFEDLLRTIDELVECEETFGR

Block 1
Compound: CC#CC(=O)N1CCC[C@H]1c1nc(-c2ccc(C(=O)Nc3ccccn3)cc2)c2c(N)nccn12
Effect on: enzyme activity
Action: inhibitor
Concentration: 1 µM
Quantity: inhibition
target = Homeodomain-interacting protein kinase 3 (HIPK3, Homo sapiens, UniProt Q9H422); result = 0%
target = Inhibitor of nuclear factor kappa-B kinase subunit epsilon (IKBKE, Homo sapiens, UniProt Q14164); result = 10%
target = Tyrosine-protein kinase Tec (TEC, Homo sapiens, UniProt P42680); result = 89%
target = Bone morphogenetic protein receptor type-1B (BMPR1B, Homo sapiens, UniProt O00238); result = 36%
target = Calcium/calmodulin-dependent protein kinase type II subunit beta (CAMK2B, Homo sapiens, UniProt Q13554); result = 0%
target = MAP/microtubule affinity-regulating kinase 4 (MARK4, Homo sapiens, UniProt Q96L34); result = 6%
target = High affinity nerve growth factor receptor (NTRK1, Homo sapiens, UniProt P04629); result = 51%
target = Mast/stem cell growth factor receptor Kit (KIT, Homo sapiens, UniProt P10721, T670I/V559D); result = 31%
target = Epithelial discoidin domain-containing receptor 1 (DDR1, Homo sapiens, UniProt Q08345); result = 20%
target = Receptor-type tyrosine-protein kinase FLT3, autoinhibited (FLT3, Homo sapiens, UniProt P36888); result = 5%
target = Casein kinase I isoform gamma-1 (CSNK1G1, Homo sapiens, UniProt Q9HCP0); result = 0%

Block 2
Target: Calcium/calmodulin-dependent protein kinase type 1G (CAMK1G, Homo sapiens, UniProt Q96NX5)
UniProt Q96NX5, sequence (whole entry, looked up): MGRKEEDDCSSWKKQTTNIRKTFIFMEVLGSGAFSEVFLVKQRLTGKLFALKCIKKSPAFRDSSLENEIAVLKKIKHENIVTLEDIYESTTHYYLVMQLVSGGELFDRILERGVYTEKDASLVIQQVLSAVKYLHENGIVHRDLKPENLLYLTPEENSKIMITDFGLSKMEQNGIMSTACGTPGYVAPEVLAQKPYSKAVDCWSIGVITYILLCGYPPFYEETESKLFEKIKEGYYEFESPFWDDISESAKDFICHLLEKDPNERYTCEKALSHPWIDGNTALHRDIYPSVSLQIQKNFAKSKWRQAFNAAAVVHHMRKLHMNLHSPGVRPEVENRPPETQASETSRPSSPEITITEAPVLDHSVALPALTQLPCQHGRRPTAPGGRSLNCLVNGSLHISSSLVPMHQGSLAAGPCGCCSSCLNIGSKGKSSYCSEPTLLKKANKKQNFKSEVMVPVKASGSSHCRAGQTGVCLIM
Effect on: enzyme activity
Action: inhibitor
Concentration: 0.5 µM
Baseline: control
Quantity: remaining activity
Structure (SMILES) = Cc1cc2ncc(-c3ccccc3)nc2cc1C; result = 101%
Structure (SMILES) = Cc1cn(-c2cc(NC(=O)c3ccc(C)c(Nc4nccc(-c5cccnc5)n4)c3)cc(C(F)(F)F)c2)cn1; result = 110%
Structure (SMILES) = c1ccc(-c2[nH]ncc2-c2ccnc3ccccc23)nc1; result = 102%
Structure (SMILES) = COc1cc2ncnc(Nc3ccc(O)c(Br)c3)c2cc1OC; result = 103%
Structure (SMILES) = c1ccc(-c2cnc(Nc3ccc(OCCN4CCCC4)cc3)s2)cc1; result = 101%
Structure (SMILES) = CCN(CC)CCNC(=O)c1c(C)[nH]c(/C=C2\C(=O)Nc3ccc(Cl)cc32)c1C; result = 49.5%
Structure (SMILES) = Cc1nc2cc3nc(-c4cccs4)cnc3cc2n1C; result = 106%
Structure (SMILES) = O=C(NC(NC(=S)Nc1ccc(F)c([N+](=O)[O-])c1)C(Cl)(Cl)Cl)C(c1ccccc1)c1ccccc1 (stereo not shown); result = 102%
Structure (SMILES) = O=C1C(Cl)=C(N2C(=O)CCC2=O)C(=O)c2ccccc21; result = 98.2%
Structure (SMILES) = Nc1cccc(-c2cc3c(Oc4cccc(O)c4)ncnc3[nH]2)c1; result = 99%
Structure (SMILES) = COc1cc2c(cc1OC)-c1[nH]nc(Nc3cccc(F)c3)c1C2; result = 101%
Structure (SMILES) = N#C/C(=C\c1ccc(O)c(O)c1)C(=O)NCc1ccccc1; result = 98.7%
Structure (SMILES) = N#Cc1c(NC(=O)c2cccc3ccccc23)sc2c1CCCC2; result = 97.7%
Structure (SMILES) = O=C(Nc1cccc(Nc2nccc(Nc3cccc(C(F)(F)F)c3)n2)c1)C1CC1; result = 98.8%
Structure (SMILES) = COc1cc2ncnc(Nc3cccc(Cl)c3)c2cc1OC; result = 93.6%
Structure (SMILES) = O=c1cc(-c2cccc3c2Sc2ccccc2S3)oc(N2CCOCC2)c1; result = 99.4%
Structure (SMILES) = O=C1c2ccccc2-c2n[nH]c3cccc1c23; result = 101%
Structure (SMILES) = CCN(CC)C(=O)c1ccc(Nc2nc(OCC3CCCCC3)c3[nH]cnc3n2)cc1; result = 96.1%
Structure (SMILES) = CN(C)C[C@H]1CCn2c(c(C3=C(c4cn(C)c5ccccc45)C(=O)NC3=O)c3ccccc32)C1; result = 95.8%
Structure (SMILES) = CN([C@@H](Cc1ccc(OS(=O)(=O)c2cccc3cnccc23)cc1)C(=O)N1CCN(c2ccccc2)CC1)S(=O)(=O)c1cccc2cnccc12; result = 93.6%
Structure (SMILES) = CCOc1nc(NC(=O)Cc2cc(OC)ccc2OC)cc(N)c1C#N; result = 100%
Structure (SMILES) = Ic1cccc(CSc2nnc(-c3ccncc3)o2)c1; result = 95.9%
Structure (SMILES) = C[C@@H]1CCN(C(=O)CC#N)C[C@@H]1N(C)c1ncnc2[nH]ccc12; result = 97.8%
Structure (SMILES) = Cn1nc2c3c(cccc31)C(=O)c1ccccc1-2; result = 95.5%

Block 3
Cell line: HaCaT
Concentration: 100 µM
Time: 18 h
Quantity: viability
Compound = Nc1cc(N2CCCCC2)nc(N)[n+]1[O-]; result = 110%
Compound = Cc1c(-c2ccccc2)oc2c(C(=O)OCCN3CCCCC3)cccc2c1=O; result = 48.8%
Compound = COc1cc(C(=O)NS(=O)(=O)c2ccccc2C)ccc1Cc1cn(C)c2ccc(NC(=O)OC3CCCC3)cc12; result = 55.7%
Compound = CC(C)NCC(O)COc1ccc(CCOCC2CC2)cc1 (stereo not shown); result = 99.8%
Compound = O=C(O)C[C@H](O)C[C@H](O)/C=C/c1c(C2CC2)nc2ccccc2c1-c1ccc(F)cc1; result = 88.4%
Compound = O=C1C(O)=C([C@H]2CC[C@H](c3ccc(Cl)cc3)CC2)C(=O)c2ccccc21; result = 112%
Compound = CC(S)C(=O)NCC(=O)O (stereo not shown); result = 107%
Compound = CN(C)CCc1c[nH]c2ccc(Cn3cncn3)cc12; result = 113%
Compound = N#CCC(C1CCCC1)n1cc(-c2ncnc3[nH]ccc23)cn1 (stereo not shown); result = 83.1%
Compound = CCC(=O)c1c(O)cc(O)cc1O; result = 90.2%

Block 4
SMILES: O=C(O)[C@H]1[C@H](Cn2nnc3ccccc3c2=O)CC[C@@H]1C(=O)c1ccc(OCCC2CCOCC2)cc1
Concentration: 1 µM
Quantity: remaining binding
target = Mitogen-activated protein kinase kinase kinase 13 (MAP3K13, Homo sapiens, UniProt O43283); effect on = cell-free assay; method = competition with immobilised ligand; result = 96%
target = Serine/threonine-protein kinase PAK 2 (PAK2, Homo sapiens, UniProt Q13177); effect on = cell-free assay; method = competition with immobilised ligand; result = 69%
target = Aurora kinase A (AURKA, Homo sapiens, UniProt O14965); effect on = cell-free assay; method = competition with immobilised ligand; result = 97%
target = Epidermal growth factor receptor (EGFR, Homo sapiens, UniProt P00533, L858R); effect on = cell-free assay; method = competition with immobilised ligand; result = 95%
target = Serine/threonine-protein kinase PAK 4 (PAK4, Homo sapiens, UniProt O96013); effect on = cell-free assay; method = competition with immobilised ligand; result = 91%
target = Mitogen-activated protein kinase 8 (MAPK8, Homo sapiens, UniProt P45983); effect on = cell-free assay; method = competition with immobilised ligand; result = 72%
target = Serine/threonine-protein kinase SIK1 (SIK1, Homo sapiens, UniProt P57059); method = competition binding; result = 100%
target = Tyrosine-protein kinase BTK (BTK, Homo sapiens, UniProt Q06187); effect on = cell-free assay; method = competition with immobilised ligand; result = 100%
target = ALK tyrosine kinase receptor (ALK, Homo sapiens, UniProt Q9UM73); effect on = cell-free assay; method = competition with immobilised ligand; result = 100%
target = Ephrin type-A receptor 6 (EPHA6, Homo sapiens, UniProt Q9UF33); effect on = cell-free assay; method = competition with immobilised ligand; result = 85%
target = Cyclin-dependent kinase 2 (CDK2, Homo sapiens, UniProt P24941); effect on = cell-free assay; method = competition with immobilised ligand; result = 100%
target = Receptor-type tyrosine-protein kinase FLT3 (FLT3, Homo sapiens, UniProt P36888, D835Y); effect on = cell-free assay; method = competition with immobilised ligand; result = 96%
target = Inhibitor of nuclear factor kappa-B kinase subunit epsilon (IKBKE, Homo sapiens, UniProt Q14164); effect on = cell-free assay; method = competition with immobilised ligand; result = 90%
target = Mitogen-activated protein kinase 15 (MAPK15, Homo sapiens, UniProt Q8TD08); effect on = cell-free assay; method = competition with immobilised ligand; result = 100%
target = Serine/threonine-protein kinase 17B (STK17B, Homo sapiens, UniProt O94768); effect on = cell-free assay; method = competition with immobilised ligand; result = 100%
target = Serine/threonine-protein kinase BRSK1 (BRSK1, Homo sapiens, UniProt Q8TDC3); effect on = cell-free assay; method = competition with immobilised ligand; result = 78%
target = Ephrin type-A receptor 5 (EPHA5, Homo sapiens, UniProt P54756); effect on = cell-free assay; method = competition with immobilised ligand; result = 100%
target = Tyrosine-protein kinase Lck (LCK, Homo sapiens, UniProt P06239); effect on = cell-free assay; method = competition with immobilised ligand; result = 78%
target = Serine/threonine-protein kinase ICK (CILK1, Homo sapiens, UniProt Q9UPZ9); effect on = binding; method = competition with immobilised ligand; result = 98%

For quick reference, copied from above (block 3):
Compound = COc1cc(C(=O)NS(=O)(=O)c2ccccc2C)ccc1Cc1cn(C)c2ccc(NC(=O)OC3CCCC3)cc12; result = 55.7%
Compound = CC(C)NCC(O)COc1ccc(CCOCC2CC2)cc1 (stereo not shown); result = 99.8%
Compound = O=C(O)C[C@H](O)C[C@H](O)/C=C/c1c(C2CC2)nc2ccccc2c1-c1ccc(F)cc1; result = 88.4%
